{"data": "Measured values pooled from the literature", "note": "Parts stem from different laboratories: compare values within a part only."}
{"data": "Set 1", "target": "RNA binding protein fox-1 homolog 2, RRM domain, GST-SBP tag (RBFOX2, Homo sapiens, UniProt O43251-10, residues 100-194)", "method": "RNA Bind-n-Seq", "form": "RNA", "sample": "in vitro", "tested at": "365 nM", "setting": "natural RNA segment, single round, ends assumed", "reference": "no-protein control", "direction": "higher = stronger binding", "Target sequence (chain)": "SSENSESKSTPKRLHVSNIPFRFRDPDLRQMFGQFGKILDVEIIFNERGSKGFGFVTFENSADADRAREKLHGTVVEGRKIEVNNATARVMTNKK"}
{"Sequence": "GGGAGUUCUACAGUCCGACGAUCCCUACUGGGUUCUCAGGGGGCAGACAGGUCCUGGCCGAAAGUCUUACCAUGGGGAUCGAUAGGGUGGUUAGCCCUGCGCACUAGGUCCAGCCAAUCUGUGCUCUGGGCCUUGGAAUUCUCGGGUGCCAA", "RBNS enrichment (R)": 0.278}
{"Sequence": "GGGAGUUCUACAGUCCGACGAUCCAAGUUUGCAGAAAGUGUCUCAGAUCGCGUUUCUGAUUGAGUGAUCCGAGCUGGACUCCUCCUGUAGGGUGGACAGACUGUAUAUUGAUAAUUCCUUCUAUGCGCAGUUUUGGAAUUCUCGGGUGCCAA", "RBNS enrichment (R)": 0.646}
{"Sequence": "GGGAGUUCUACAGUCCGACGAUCGCUACUCAGGAGGCUGAGGCAGGAGAAUCGCUUGAACCCGGAAGGCAGAGGUUGCAGUGAGCUGAGAUUGUGCCACUGCACGCCAGCCUGGGCAAGAGAGUAAGACUCUCUGGAAUUCUCGGGUGCCAA", "RBNS enrichment (R)": 1.61}
{"Sequence": "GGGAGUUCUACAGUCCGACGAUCAGAAUGUGAAUAGUGCCAAGAAAAUCCUUUACAUUAUUUAAUAAAAAUUGAAUCCAUUUUCUAUCUUGAAAUGUUUUCCUUUGAGAAUACCAGAACAUUCCCUUAUUGCUUGGAAUUCUCGGGUGCCAA", "RBNS enrichment (R)": 0.581}
{"Sequence": "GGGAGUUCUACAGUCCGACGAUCUUCUAACUUUGGCAACAUCAGAACUUGCCACAUGUAGCUACUGCAGCAAGGCUUCUGUGUACUUGCCUGAAAACAAAGGAAGGUGCUGGUCAUUCCAUUUCUUUUGUUUGUGGAAUUCUCGGGUGCCAA", "RBNS enrichment (R)": 0.228}
{"Sequence": "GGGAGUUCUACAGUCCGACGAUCACGGCACCUUCUUGAAAAGGAAGCAUUUGAACUUGUUCCUCCCUAUAGUUCUAUUGCCUUAUAUGCAAAAUUGUACCCUGUUGCUCAGAGAAAUUAUUCAUAAGAGAAAAUGGAAUUCUCGGGUGCCAA", "RBNS enrichment (R)": 0.42}
{"Sequence": "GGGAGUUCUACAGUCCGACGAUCCAUACUUUAUAAGUAAAGCGCUAUGAAUGCUGUGGAGACCAAGGUGAAAUAAAUAGUGCAAAUGUGUAGGAAUAAUUAGAUUGCAGUUUCCAUACAUCCGCAAGCCCAGUUGGAAUUCUCGGGUGCCAA", "RBNS enrichment (R)": 1.96}
{"Sequence": "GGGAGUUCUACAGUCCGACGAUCCAGGCAGAUACUGCUGUAUUUAGACAUUUCUAUUUCAGUUCAUUAAAAACUGCAAAACCAAUCUGUAUCAUGUACCAAACUGACUUAAAAUAAAUCUACAUGUUUAUUGAUGGAAUUCUCGGGUGCCAA", "RBNS enrichment (R)": 0.368}
{"data": "Set 2", "target": "Histone acetyltransferase KAT6A, both winged helices, GST fusion (KAT6A, Homo sapiens, UniProt Q92794, residues 1-181)", "method": "protein binding microarray", "form": "double-stranded DNA, one strand shown", "sample": "in vitro", "tested at": "not given", "setting": "8-mer, flanks averaged, mean of 2 arrays, mostly near background", "reference": "not given", "direction": "higher = stronger binding", "Construct (chain)": "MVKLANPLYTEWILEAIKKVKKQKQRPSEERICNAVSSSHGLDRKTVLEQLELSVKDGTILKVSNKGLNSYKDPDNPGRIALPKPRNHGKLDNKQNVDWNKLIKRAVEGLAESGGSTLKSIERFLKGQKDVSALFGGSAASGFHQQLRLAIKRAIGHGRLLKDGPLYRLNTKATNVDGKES"}
{"Sequence": "GAAAACAA", "E-score": -0.177}
{"Sequence": "TACGCAGA", "E-score": 0.0218}
{"Sequence": "CCTGAATC", "E-score": -0.111}
{"Sequence": "ACCACTTA", "E-score": -0.0723}
{"Sequence": "AGTTGTAG", "E-score": -0.0673}
{"Sequence": "ACGTCCCC", "E-score": -0.0147}
{"Sequence": "AGCAGACA", "E-score": -0.23}
{"Sequence": "CAGGATTA", "E-score": -0.094}
{"Sequence": "ATGGTCAC", "E-score": -0.0496}
{"Sequence": "GGGCGTTA", "E-score": 0.0429}
{"Sequence": "CGCAAAGA", "E-score": 0.0892}
{"Sequence": "GCGCGGCC", "E-score": 0.378}
{"Sequence": "TACACGTA", "E-score": -0.0478}
{"Sequence": "AGGACACC", "E-score": -0.0341}
{"Sequence": "CAAACCTA", "E-score": -0.233}
{"Sequence": "CTACGCCA", "E-score": 0.0275}
{"Sequence": "CTCACACA", "E-score": -0.0508}
{"Sequence": "CTGCGATC", "E-score": 0.0201}
{"Sequence": "AACGCGTC", "E-score": 0.322}
{"Sequence": "ATCGAACC", "E-score": 0.0347}
{"Sequence": "AAGTACGT", "E-score": -0.0683}
{"Sequence": "AACTGACT", "E-score": -0.0224}
{"Sequence": "ACTGGCTA", "E-score": -0.163}
{"data": "Set 3", "target": "Fragile X messenger ribonucleoprotein 1, C-terminal low-complexity region (Fmr1, Mus musculus, UniProt P35922)", "method": "RNA Bind-n-Seq", "form": "RNA", "sample": "in vitro", "tested at": "200 nM", "setting": "whole 134-nt RNA, ends assumed", "together with": "150 mM LiCl", "reference": "input library", "direction": "higher = stronger binding", "each molecule": "7-deaza-guanosine replaces G"}
{"Sequence": "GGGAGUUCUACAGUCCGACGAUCUCAAGUCCUGUGCUACACAUCGUAUGUACCGAAUCGGGGAAGGAAGGGGAAGGGGAAAGUAUUAUGUUACGCCGUUCGGAUCUGCACUUCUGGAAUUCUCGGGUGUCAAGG", "log2 enrichment": -0.4}
{"Sequence": "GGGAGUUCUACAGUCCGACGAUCCAAGUCCUGUGCUACACAUCGUAUGUACCGAAUCGGGUUUUUGGGAGGGUUUGGGAAAGUAUUAUGUUACGCCGUUCGGAUCUGCACUUCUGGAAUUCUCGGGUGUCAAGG", "log2 enrichment": -0.613}
{"Sequence": "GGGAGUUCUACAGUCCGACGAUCCACAGACAACACGCACCCACACAGACACAGAGGGAAGGGGUUGGGAUGGGGACAGGGUGCACAGCAGGGCUGGGUAGGACCCCAGCCCCUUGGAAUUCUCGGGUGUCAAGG", "log2 enrichment": 0.473}
{"Sequence": "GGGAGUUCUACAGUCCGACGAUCUCCUGUGCUACACAUCGUAUGUACCGAAUCGGGGUUUUUGGGGAAAAAGGGGAAAGGGGAAAGUAUUAUGUUACGCCGUUCGGAUCUGCAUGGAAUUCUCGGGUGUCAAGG", "log2 enrichment": -0.837}
{"Sequence": "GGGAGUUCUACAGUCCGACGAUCCAAGUCCUGUGCUACACAUCGUAUGUACCGAAUCGGGAGGGAGGGUUUUUUUGGGAAAGUAUUAUGUUACGCCGUUCGGAUCUGCACUUCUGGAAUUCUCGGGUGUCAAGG", "log2 enrichment": -0.567}
{"Sequence": "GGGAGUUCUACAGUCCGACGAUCUGGCCCUGGUGGCAUGCGGGGAAGAAGAGGUGGCCUCAUGGAUCGUGGUGGUCCCGGUGGAAUGUUCAGAGGUGGCCGUGGUGGAGACAGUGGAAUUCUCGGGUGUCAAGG", "log2 enrichment": 0.265}
{"Sequence": "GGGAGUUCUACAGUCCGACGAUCACAAUGCAGGUGGGCAUCUUUGGGAAGUGGGGCAAGGGGGGGAUAGGGAGGGGGGUAACACUUUGGGAACAGGUGGUCCCAGGUCGUUUCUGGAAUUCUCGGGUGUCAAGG", "log2 enrichment": 1.35}
{"Sequence": "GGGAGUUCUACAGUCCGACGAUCACCAUGCAGGUGGGCAUCUUUGGGAAGUGGGGCAAGGGGGGGAUAGGGAGGGAGGUAACACUUUGGGAACAGGUGGUCCCAGGUCGUUUCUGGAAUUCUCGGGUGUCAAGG", "log2 enrichment": 1}
{"data": "Set 4", "target": "Interferon regulatory factor 7, full length, phosphomimetic (IRF7, Homo sapiens, UniProt Q92985, residues 1-503, S101K/S471D/S472D/S475D/S476D/S477D/S483D/S484D/S487D)", "method": "protein-binding microarray", "form": "double-stranded DNA, one strand shown", "sample": "in vitro", "tested at": "250 nM", "setting": "60-bp whole probe", "together with": "salmon DNA 0.4 mg/ml", "reference": "random background probes", "direction": "higher = stronger binding", "constant ends, left off below": "GCCTAGCAC … GTCTTGATTCGCTTGACGCTGCTG", "Residues (chain)": "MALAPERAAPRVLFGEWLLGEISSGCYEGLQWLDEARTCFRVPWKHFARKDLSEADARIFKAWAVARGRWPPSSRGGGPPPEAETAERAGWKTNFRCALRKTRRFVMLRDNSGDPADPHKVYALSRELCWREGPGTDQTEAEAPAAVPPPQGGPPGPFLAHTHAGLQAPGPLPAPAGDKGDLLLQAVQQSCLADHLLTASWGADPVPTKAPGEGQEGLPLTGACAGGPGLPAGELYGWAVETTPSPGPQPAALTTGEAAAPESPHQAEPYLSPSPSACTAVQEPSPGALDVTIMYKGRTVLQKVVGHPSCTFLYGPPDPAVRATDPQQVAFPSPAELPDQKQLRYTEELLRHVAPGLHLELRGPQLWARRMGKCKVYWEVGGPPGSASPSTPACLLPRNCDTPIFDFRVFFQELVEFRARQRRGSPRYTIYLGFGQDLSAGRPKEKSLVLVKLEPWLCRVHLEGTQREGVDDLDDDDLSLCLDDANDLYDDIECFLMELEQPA"}
{"Sequence": "ATAGGACTGGACACTGGGTTAGTGCTA", "log fluorescence": "-0.377 z-score"}
{"Sequence": "TTAGGTTTCGGTATCGATTAGTGCTAG", "log fluorescence": "10.9 z-score"}
{"Sequence": "TTAGGACTGCTTATCCTTTCGTGCTAG", "log fluorescence": "-0.0209 z-score"}
{"Sequence": "TTAGGTATCCTTGTCCTTTAGTGCTAG", "log fluorescence": "0.158 z-score"}
{"Sequence": "GACGATTCCAGTTACGAGACGTGCTAG", "log fluorescence": "0.858 z-score"}
{"Sequence": "GACGGACTCGGACTGGGGACGTGCTAG", "log fluorescence": "0.237 z-score"}
{"Sequence": "GACGAACTGAGACTGGCGACGTGCTAG", "log fluorescence": "-0.2 z-score"}
{"Sequence": "GACAGTTTCCTTCTCCTGACGTGCTAG", "log fluorescence": "2.69 z-score"}
{"Sequence": "TTAGGTATCCTACTGCTTTCGTGCTAG", "log fluorescence": "-0.0802 z-score"}
{"Sequence": "TATGTTCCCTATATAAGGCGGTGCTAG", "log fluorescence": "2.42 z-score"}
{"Sequence": "ATAGATTTCAGTTCCGATTAGTGCTAG", "log fluorescence": "1.6 z-score"}
{"Sequence": "CACTCTCTGCTTGTGTCTGGGTGCTAG", "log fluorescence": "0.583 z-score"}
{"Sequence": "GACGGTATCGGTTTCGGGACGTGCTAG", "log fluorescence": "6.77 z-score"}
{"Sequence": "GACGGTATCGGGTAGCGGGACGTGCTA", "log fluorescence": "0.136 z-score"}
{"Sequence": "GACGGATTCGGGTATCGGGACGTGCTA", "log fluorescence": "1.09 z-score"}
{"Sequence": "GACGGTTTCGACACTAGGGACGTGCTA", "log fluorescence": "3.85 z-score"}
{"Sequence": "TTAGGACTGCTACTGTTTTAGTGCTAG", "log fluorescence": "-0.00965 z-score"}
